Published values from different studies.
Each line is one published result; not all experiments were run side by side. ± gives the spread as reported.
IKBKG with IKK-beta: NF-kappa-B essential modulator, with IKK-beta (IKBKG, Homo sapiens, UniProt Q9Y6K9)
Chain of UniProt Q9Y6K9 (whole entry, looked up): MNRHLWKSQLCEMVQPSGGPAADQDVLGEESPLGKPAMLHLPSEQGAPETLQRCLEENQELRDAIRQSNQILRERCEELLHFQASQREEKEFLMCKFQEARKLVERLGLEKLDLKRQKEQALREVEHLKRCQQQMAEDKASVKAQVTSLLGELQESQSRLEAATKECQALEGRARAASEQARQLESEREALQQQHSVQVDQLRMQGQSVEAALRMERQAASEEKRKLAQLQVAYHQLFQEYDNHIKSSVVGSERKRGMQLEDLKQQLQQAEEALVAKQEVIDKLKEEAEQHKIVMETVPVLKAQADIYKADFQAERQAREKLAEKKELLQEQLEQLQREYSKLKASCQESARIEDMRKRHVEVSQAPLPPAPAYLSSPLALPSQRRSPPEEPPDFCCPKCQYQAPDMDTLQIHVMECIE
PIK3CA: Phosphatidylinositol 4,5-bisphosphate 3-kinase catalytic subunit alpha isoform (PIK3CA, Homo sapiens, UniProt P42336)
Chain of UniProt P42336 (whole entry, looked up): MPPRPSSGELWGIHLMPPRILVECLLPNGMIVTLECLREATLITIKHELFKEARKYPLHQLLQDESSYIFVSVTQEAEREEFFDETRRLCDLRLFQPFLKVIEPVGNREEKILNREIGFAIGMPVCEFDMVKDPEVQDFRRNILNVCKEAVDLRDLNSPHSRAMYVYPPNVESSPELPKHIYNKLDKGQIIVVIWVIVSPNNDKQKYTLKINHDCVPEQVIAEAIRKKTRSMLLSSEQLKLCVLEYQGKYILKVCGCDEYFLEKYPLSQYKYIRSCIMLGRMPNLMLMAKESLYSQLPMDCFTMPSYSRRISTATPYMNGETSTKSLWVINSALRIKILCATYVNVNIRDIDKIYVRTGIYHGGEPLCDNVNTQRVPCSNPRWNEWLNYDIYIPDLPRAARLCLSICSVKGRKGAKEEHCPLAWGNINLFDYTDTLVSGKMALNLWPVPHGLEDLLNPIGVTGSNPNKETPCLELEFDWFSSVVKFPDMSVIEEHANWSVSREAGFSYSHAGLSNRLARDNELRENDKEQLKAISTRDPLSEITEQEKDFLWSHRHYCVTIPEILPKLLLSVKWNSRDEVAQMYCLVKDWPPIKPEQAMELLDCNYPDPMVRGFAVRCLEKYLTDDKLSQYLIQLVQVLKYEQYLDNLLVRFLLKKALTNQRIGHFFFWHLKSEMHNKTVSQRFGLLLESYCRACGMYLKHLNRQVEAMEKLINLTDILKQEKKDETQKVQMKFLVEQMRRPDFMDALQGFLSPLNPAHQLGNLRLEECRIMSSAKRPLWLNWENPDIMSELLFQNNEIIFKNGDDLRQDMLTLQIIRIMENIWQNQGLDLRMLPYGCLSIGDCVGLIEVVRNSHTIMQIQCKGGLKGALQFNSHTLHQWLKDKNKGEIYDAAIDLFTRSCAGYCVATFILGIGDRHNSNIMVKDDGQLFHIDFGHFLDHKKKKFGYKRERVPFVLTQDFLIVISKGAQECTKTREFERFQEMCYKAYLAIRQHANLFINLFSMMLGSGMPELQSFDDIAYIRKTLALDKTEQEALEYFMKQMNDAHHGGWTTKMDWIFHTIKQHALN
RIPK2: Receptor-interacting serine/threonine-protein kinase 2 (RIPK2, Homo sapiens, UniProt O43353)
Chain of UniProt O43353 (whole entry, looked up): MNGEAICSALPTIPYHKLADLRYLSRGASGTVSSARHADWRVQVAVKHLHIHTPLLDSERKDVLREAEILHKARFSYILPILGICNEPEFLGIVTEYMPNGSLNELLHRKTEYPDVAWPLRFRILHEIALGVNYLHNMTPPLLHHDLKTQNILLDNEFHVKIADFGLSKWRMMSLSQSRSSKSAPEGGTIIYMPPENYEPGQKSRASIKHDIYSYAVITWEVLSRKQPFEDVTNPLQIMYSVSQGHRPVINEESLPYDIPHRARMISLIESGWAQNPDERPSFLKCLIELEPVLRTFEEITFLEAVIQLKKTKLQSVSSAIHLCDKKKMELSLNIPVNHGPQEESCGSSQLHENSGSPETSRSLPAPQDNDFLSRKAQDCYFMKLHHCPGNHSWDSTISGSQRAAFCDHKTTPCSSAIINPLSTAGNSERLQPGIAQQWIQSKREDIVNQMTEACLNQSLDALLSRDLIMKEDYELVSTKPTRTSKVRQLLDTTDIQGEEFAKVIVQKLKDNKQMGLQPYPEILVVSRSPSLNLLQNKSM
Chain of UniProt P08246 (whole entry, looked up): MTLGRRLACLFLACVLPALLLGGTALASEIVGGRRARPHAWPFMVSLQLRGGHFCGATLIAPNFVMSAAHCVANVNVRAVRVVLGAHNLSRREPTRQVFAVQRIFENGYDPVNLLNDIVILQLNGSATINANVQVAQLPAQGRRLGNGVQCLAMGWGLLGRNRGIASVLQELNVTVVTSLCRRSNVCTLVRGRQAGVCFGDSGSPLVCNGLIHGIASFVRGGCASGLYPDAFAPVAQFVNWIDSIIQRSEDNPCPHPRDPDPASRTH
Chain of UniProt Q92731 (whole entry, looked up): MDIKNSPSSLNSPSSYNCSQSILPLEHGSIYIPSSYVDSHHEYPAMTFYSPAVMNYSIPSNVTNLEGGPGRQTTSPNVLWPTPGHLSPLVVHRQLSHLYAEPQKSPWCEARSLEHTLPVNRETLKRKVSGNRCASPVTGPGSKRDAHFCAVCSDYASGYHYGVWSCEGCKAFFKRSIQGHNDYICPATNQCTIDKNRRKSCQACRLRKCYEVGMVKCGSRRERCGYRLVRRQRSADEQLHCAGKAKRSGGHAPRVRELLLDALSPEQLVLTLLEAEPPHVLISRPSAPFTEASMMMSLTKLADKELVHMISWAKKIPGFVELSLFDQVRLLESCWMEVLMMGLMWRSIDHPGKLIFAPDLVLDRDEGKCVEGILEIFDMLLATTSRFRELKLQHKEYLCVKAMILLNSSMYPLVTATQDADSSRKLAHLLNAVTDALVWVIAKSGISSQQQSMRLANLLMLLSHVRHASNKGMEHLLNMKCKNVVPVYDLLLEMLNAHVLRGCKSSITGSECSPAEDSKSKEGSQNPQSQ
Chain of UniProt P18031 (whole entry, looked up): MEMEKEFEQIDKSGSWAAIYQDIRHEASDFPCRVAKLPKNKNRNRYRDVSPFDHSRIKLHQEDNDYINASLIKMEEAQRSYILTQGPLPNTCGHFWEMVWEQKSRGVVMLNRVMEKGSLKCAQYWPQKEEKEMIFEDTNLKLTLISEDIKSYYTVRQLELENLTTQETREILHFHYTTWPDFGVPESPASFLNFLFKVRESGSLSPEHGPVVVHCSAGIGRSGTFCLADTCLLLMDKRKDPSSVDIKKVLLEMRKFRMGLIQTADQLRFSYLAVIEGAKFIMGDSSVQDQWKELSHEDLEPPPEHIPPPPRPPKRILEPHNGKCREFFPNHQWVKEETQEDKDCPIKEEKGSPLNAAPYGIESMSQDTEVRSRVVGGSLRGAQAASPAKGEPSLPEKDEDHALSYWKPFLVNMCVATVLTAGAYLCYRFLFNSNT
Chain of UniProt P20231 (whole entry, looked up): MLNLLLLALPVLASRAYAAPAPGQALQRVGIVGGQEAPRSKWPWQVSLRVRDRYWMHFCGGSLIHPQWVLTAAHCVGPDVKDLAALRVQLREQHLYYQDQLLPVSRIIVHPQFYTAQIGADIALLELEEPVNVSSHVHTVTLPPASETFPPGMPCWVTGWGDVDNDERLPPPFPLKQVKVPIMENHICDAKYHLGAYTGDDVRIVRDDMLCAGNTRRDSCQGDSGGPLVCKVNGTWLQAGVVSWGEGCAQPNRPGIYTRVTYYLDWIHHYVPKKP
Chain of UniProt P09917 (whole entry, looked up): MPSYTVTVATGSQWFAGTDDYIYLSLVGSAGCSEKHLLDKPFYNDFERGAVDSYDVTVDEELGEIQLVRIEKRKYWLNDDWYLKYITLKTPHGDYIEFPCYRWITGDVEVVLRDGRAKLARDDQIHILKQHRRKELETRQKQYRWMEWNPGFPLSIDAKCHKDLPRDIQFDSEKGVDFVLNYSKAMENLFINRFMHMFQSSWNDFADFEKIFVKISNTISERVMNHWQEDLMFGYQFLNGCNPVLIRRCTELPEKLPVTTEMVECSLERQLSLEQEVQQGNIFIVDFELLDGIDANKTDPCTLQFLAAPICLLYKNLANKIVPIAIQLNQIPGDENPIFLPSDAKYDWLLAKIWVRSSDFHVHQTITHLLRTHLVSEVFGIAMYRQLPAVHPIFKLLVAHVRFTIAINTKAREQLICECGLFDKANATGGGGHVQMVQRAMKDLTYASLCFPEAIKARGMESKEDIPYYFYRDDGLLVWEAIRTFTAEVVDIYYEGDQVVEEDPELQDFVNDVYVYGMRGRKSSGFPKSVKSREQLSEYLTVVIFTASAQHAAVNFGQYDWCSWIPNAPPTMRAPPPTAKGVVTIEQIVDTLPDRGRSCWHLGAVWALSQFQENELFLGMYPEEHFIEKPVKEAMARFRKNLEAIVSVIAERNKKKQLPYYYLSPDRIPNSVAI
Chain of UniProt Q9UNQ0 (whole entry, looked up): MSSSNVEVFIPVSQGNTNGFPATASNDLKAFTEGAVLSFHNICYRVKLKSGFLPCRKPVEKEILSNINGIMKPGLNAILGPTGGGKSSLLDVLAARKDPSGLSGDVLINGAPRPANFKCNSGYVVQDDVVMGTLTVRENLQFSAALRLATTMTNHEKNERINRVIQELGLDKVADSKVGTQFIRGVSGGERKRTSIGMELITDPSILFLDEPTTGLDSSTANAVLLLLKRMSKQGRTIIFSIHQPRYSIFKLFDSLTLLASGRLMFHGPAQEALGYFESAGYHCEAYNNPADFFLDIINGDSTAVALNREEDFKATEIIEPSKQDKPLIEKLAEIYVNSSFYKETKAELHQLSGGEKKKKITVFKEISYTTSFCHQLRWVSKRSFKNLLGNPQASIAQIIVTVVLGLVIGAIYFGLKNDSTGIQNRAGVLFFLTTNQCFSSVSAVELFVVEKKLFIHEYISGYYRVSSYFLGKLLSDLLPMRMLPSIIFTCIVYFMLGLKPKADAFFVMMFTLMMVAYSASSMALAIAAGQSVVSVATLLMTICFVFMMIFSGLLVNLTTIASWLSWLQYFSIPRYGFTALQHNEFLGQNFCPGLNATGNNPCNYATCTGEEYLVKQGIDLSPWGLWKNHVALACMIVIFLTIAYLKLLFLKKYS

SMILES	target	assay	test system	conditions	IC50
O=C1O[C@H]([C@@H](O)c2ccc(O)cc2)c2cccc(O)c21	PTPN1 (Homo sapiens, UniProt P18031)	enzyme activity, inhibitor, absorbance			> 100 µM
O=S(=O)(Oc1ccc(Br)cc1)C1CC2OC1C(c1ccc(O)cc1)=C2c1ccc(O)cc1 (racemic)	ESR2 (Homo sapiens, UniProt Q92731)	reporter gene, antagonist, ERE luciferase reporter	HepG2 transfected with ERβ	added: estradiol 1 µM	> 10 µM
COc1ccc(-c2ccc(-c3cn(C(=O)N4CCCCC4c4ccccc4)nn3)cc2)cc1 (stereo not drawn)	Abhd6 (Mus musculus, UniProt Q8R2Y0)	enzyme activity, inhibitor			0.01 µM
CC(C)C[C@H](NC(=O)[C@H](CC(N)=O)NC(=O)[C@H](CC(C)C)NC(=O)[C@@H](NC(=O)[C@@H](NC(=O)[C@@H]1CCCN1C(=O)[C@H](CCCNC(=N)N)NC(=O)[C@H](CCCCN)NC(=O)[C@@H]1CCCN1)[C@@H](C)O)[C@@H](C)O)C(=O)N[C@@H](Cc1ccccc1)C(=O)NCCCCCC(=O)N[C@@H](CCCNC(=N)N)C(=O)N[C@@H](CCCNC(=N)N)C(=O)N[C@@H](CCCNC(=N)N)C(=O)N[C@@H](CCCNC(=N)N)C(=O)N[C@@H](CCCNC(=N)N)C(=O)N[C@@H](CCCNC(=N)N)C(=O)N[C@@H](CCCNC(=N)N)C(=O)N[C@@H](CCCNC(=N)N)C(=O)N[C@@H](CCCNC(=N)N)C(N)=O	MAPK10 (Homo sapiens, UniProt P53779)	enzyme activity, inhibitor, radiometric		pH 7.5	1.2 µM
COc1cncc(-c2cc(F)cc(CNC(=O)c3cc(N4CC[C@@](C#N)(C5CC5)C4=O)cc(C)n3)c2)c1	EPRS1 (Homo sapiens, UniProt P07814)	enzyme activity, inhibitor, absorbance			1.08 µM
CC[C@H](C)[C@@H]1NC(=O)[C@H](Cc2c[nH]c3ccccc23)NC(=O)CNC(=O)[C@H](C)NC(=O)c2cc3cc(c2)C(=O)NC[C@H](NC(=O)[C@H](Cc2ccc(O)cc2)NC1=O)C(=O)N[C@@H](Cc1ccccc1)C(=O)N[C@@H](Cc1ccc2ccccc2c1)C(=O)N[C@@H](CCCNC(=N)N)C(=O)N[C@H](CCCNC(=N)N)C(=O)N[C@@H](CCCNC(=N)N)C(=O)N[C@H](C(=O)NCCC(=O)NCCC(=O)N[C@@H](CCCCN)C(N)=O)CNC3=O	IKBKG with IKK-beta	inhibitor, HTRF			2.2 ± 0.1 µM
COc1cc(O)ccc1CC[C@H](c1ccc(O)cc1)c1cc2c(c(C)c1O)O[C@@H](c1ccc(O)cc1)CC2	ALOX5 (Homo sapiens, UniProt P09917)	enzyme activity, inhibitor			1.5 µM
N=C(N)NCCCC(N)C(=O)NCC(=O)NC(CCCCNC(=N)NCCSCC1OC(n2cnc3c(N)ncnc32)C(O)C1O)C(N)=O (stereo not drawn)	EHMT2 (Homo sapiens, UniProt Q96KQ7)	enzyme activity, inhibitor, fluorescence			~10 µM
C=CS(=O)(=O)Nc1ccc2nc(NCCCCCN(C)C)nc(NCCCCCCN(C)C)c2c1	Histone-lysine N-methyltransferase SETDB1, triple Tudor domain (SETDB1, Homo sapiens, UniProt Q15047)	binding, inhibitor			0.73 ± 0.67 µM
CC[C@H](C)[C@@H]1NC(=O)[C@H](C)NC(=O)CNC(=O)c2cc3cc(c2)C(=O)NC[C@@H](C(=O)NCCC(=O)NCCC(=O)N[C@@H](CCCCN)C(N)=O)NC(=O)[C@H](CCCNC(=N)N)NC(=O)[C@@H](CCCNC(=N)N)NC(=O)[C@H](CCCNC(=N)N)NC(=O)[C@H](Cc2ccc4ccccc4c2)NC(=O)[C@H](Cc2ccccc2)NC(=O)[C@H](CNC3=O)NC(=O)[C@H](C)NC(=O)[C@H](C)NC1=O	IKBKG with IKK-beta	inhibitor, HTRF			16 ± 2 µM
NS(=O)(=O)Oc1ccc(CN(c2ccccc2)n2cnnc2)cc1	Steryl-sulfatase (STS, Homo sapiens, UniProt P08842)	enzyme activity, inhibitor	JEG-3 intact monolayers		> 1 µM
COc1c(OCCCN)ccc2c1N=C(NC(=O)c1cccnc1)N1CCN=C21	PIK3CA	enzyme activity, inhibitor, radiometric			0.0047 µM
Cc1nc2c(N)[n+]3cnc2n1[C@@H]1O[C@H](COP(=O)([O-])OP(=O)(O)OC[C@H]2O[C@@H]3[C@H](O)[C@@H]2O)[C@@H](O)[C@H]1O	cADPR receptor, sea urchin	cADPR-induced Ca2+ release, antagonist, fluo-3 fluorimetry	sea urchin egg homogenate		0.53 µM
COC1C=CC=C(C)C(=O)NC2=CC(=O)C(NCCN(C)C)=C(CC(C)CC(OC)C(O)C(C)C=C(C)C1OC(N)=O)C2=O (stereo not drawn)	KDM3A (Homo sapiens, UniProt Q9Y4C1)	enzyme activity, inhibitor, AlphaScreen			< 1 µM
Cc1ccc(S(=O)(=O)N/N=C/c2ccsc2B(O)O)cc1	Neutrophil elastase (ELANE, Homo sapiens, UniProt P08246)	enzyme activity, inhibitor, fluorescence			12 µM
O=C1NC(=S)S/C1=C\c1ccc2c(c1)OCO2	PIK3CA	enzyme activity, inhibitor, radiometric			0.25 µM
Clc1ccc(-c2cs/c(=N/N=C/c3ccc(N4CCOCC4)cc3)n2-c2ccccc2)cc1	CA2 (Bos taurus, UniProt P00921)	enzyme activity, inhibitor, absorbance			31.5 µM
CCCCCCCCCCCC(=O)N[C@H](CO)C[C@@H](O)c1ccccc1	CERT1 (Homo sapiens, UniProt Q9Y5P4)	target engagement in cells, BRET			0.35 µM

SMILES	target	assay	test system	conditions	IC50
O[C@H]1[C@H](O)[C@@H](O)c2[nH]cnc2[C@@H]1O	β-glucosidase (sweet almond)	inhibitor			> 100 µM
Cc1ccc(S(=O)(=O)/C=C/C#N)cc1	USP7 (Homo sapiens, UniProt Q93009)	deubiquitinase activity, inhibitor, MALDI-TOF DUB		60 min, 30 °C, 35 min pre-incubation, added: diubiquitin substrate	< 0.2 µM
O=C(O)[C@@H]1[C@@H](OCCNC(=O)C(F)(F)F)[C@H](O)[C@@H](O)[C@@H]2O[C@@H]21	Beta-glucuronidase (uidA, Escherichia coli, UniProt P05804)	enzyme activity, inhibitor, fluorescence		pH 5, with preincubation	> 100 µM
CC(C)NC(=O)NC1CC=C(c2cc3c(Nc4cc5ncsc5cc4F)ncnc3s2)CC1 (racemic)	RIPK2	enzyme activity, inhibitor			0.011 µM
O=C(c1ccc2c(c1)OCO2)C1C(c2ccc(Cl)cc2)C2CCCN2C12C(=O)Nc1ccccc12 (stereo not drawn)	α-glucosidase (Saccharomyces cerevisiae)	enzyme activity, inhibitor			18 ± 1 µg/mL
N#C/C(=C1C=C/C(=N\O)C(Br)=C/1)c1ccc(Cl)cc1	Estrogen receptor (ESR1, Homo sapiens, UniProt P03372)	coactivator recruitment, antagonist			2.86 µM
COc1ccc(NC(=O)c2cccc(S(=O)(=O)NC3CC3)c2)cc1	Ectonucleoside triphosphate diphosphohydrolase 3 (Homo sapiens, UniProt O75355)	enzyme activity, inhibitor, absorbance			46.2 µM
CC(C)=CCN=C(N)NCCC[C@@H](NC(=O)CCCc1ccc(O)cc1)C(=O)N[C@@H](Cc1ccccc1)C(O)CC(=O)N[C@@H](Cc1ccc(O)cc1)C(=O)O (stereo in doubt)	Cathepsin D (CTSD, Homo sapiens, UniProt P07339)	enzyme activity, inhibitor			20 µM
COc1cc(O)c(C(=O)/C=C/c2cccc3ccccc23)c(OC)c1	ABCG2 (Homo sapiens, UniProt Q9UNQ0)	transporter efflux, inhibitor, flow cytometry	HEK293	30 min	0.22 µM
C[C@@H](O)[C@H](NS(=O)(=O)NS(=O)(=O)OC[C@H]1O[C@@H](n2cnc3c(N)ncnc32)[C@H](O)[C@@H]1O)C(=O)O	Threonylcarbamoyl-AMP synthase (tsaC, Escherichia coli, UniProt P45748)	TC-AMP formation, inhibitor		added: ATP 1.2 mM, L-threonine 1.8 mM	97 ± 1.4 µM
N=C(N)NCCC[C@H](NC(=O)[C@H](CC(=O)O)NC(=O)[C@@H]1CSCCCC(=O)NCC(=O)N[C@@H](Cc2c[nH]cn2)C(=O)N[C@H](Cc2ccccc2)C(=O)N[C@@H](CCCNC(=N)N)C(=O)N[C@H](Cc2c[nH]c3ccccc23)C(=O)N1)C(=O)N[C@@H](Cc1ccccc1)C(=O)NCC(N)=O	MC1R (Homo sapiens, UniProt Q01726)	ligand displacement, radioligand			0.017 µM
CCOC(=O)c1cnc(N2CC[C@@H](NC(=O)c3[nH]c(C)c(Cl)c3Cl)[C@@H](OC)C2)o1	gyrB (Escherichia coli, UniProt P0AES6)	enzyme activity			> 10 µM
CC(C)NC(=O)N1CC=C(c2cc3c(Nc4ccc5scnc5c4)ncnc3s2)CC1	RIPK2	enzyme activity, inhibitor			0.02 µM
CCC(=O)N1CCC(NC(=O)NC23CC4CC(C)(CC(C)(C4)C2)C3)CC1	Ephx2 (Mus musculus, UniProt P34914)	enzyme activity, inhibitor, fluorescence			0.0052 µM
O=CCCCC=O	Tryptase beta-2 (TPSB2, Homo sapiens, UniProt P20231)			pH 7.4	> 10000 µM
N/C(=N\O)c1ccc2c(c1)N(Cc1ccc(C(=O)NO)cc1)c1ccccc1O2	HDAC7 (Homo sapiens, UniProt Q8WUI4)	enzyme activity, inhibitor			1.84 µM
O=c1[nH]c2ccccc2n1CCCCCN1CCN(c2ccc(F)cc2)CC1	HTR7 (Homo sapiens, UniProt P34969)	cAMP production, inverse agonist, LANCE cAMP	HEK293 expressing human 5-HT7R		0.014 ± 0.006 µM
Oc1cc(O)c2c(c1)O[C@H](c1ccc(O)c(O)c1)[C@H](O)[C@H]2c1c(O)cc(O)c2c1O[C@H](c1ccc(O)c(O)c1)[C@H](O)[C@H]2c1c(O)cc(O)c2c1O[C@H](c1ccc(O)c(O)c1)[C@H](O)[C@H]2c1c(O)cc(O)c2c1O[C@H](c1ccc(O)c(O)c1)[C@H](O)C2	alpha-glucosidase (Bacillus stearothermophilus)	inhibitor		20 min, pH 6.8, 60 °C, added: pNPG substrate	1.7 ± 0.1 µM

Some of these lines once more:
SMILES	target	assay	test system	conditions	IC50
NS(=O)(=O)Oc1ccc(CN(c2ccccc2)n2cnnc2)cc1	Steryl-sulfatase (STS, Homo sapiens, UniProt P08842)	enzyme activity, inhibitor	JEG-3 intact monolayers		> 1 µM
COc1c(OCCCN)ccc2c1N=C(NC(=O)c1cccnc1)N1CCN=C21	PIK3CA	enzyme activity, inhibitor, radiometric			0.0047 µM
Cc1nc2c(N)[n+]3cnc2n1[C@@H]1O[C@H](COP(=O)([O-])OP(=O)(O)OC[C@H]2O[C@@H]3[C@H](O)[C@@H]2O)[C@@H](O)[C@H]1O	cADPR receptor, sea urchin	cADPR-induced Ca2+ release, antagonist, fluo-3 fluorimetry	sea urchin egg homogenate		0.53 µM
